Experimental data from different studies.
A part holds a random share of what one study measured.
Chain of UniProt Q92630 (whole entry, looked up): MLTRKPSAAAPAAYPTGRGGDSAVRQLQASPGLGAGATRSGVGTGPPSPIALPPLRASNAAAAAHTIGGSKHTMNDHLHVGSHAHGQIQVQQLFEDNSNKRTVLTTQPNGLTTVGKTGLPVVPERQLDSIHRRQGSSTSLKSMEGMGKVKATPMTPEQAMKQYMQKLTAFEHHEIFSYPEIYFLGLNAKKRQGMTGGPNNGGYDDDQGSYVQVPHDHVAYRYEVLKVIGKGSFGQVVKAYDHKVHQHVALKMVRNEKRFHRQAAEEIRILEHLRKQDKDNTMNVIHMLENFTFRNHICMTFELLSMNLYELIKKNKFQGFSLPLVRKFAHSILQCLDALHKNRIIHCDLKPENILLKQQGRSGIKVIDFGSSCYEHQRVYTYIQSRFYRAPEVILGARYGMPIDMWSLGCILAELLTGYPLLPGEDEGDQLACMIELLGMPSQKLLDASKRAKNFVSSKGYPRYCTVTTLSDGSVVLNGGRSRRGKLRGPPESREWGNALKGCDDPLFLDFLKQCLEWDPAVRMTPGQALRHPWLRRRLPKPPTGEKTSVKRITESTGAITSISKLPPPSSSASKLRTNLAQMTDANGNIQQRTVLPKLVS
Chain of UniProt Q16288 (whole entry, looked up): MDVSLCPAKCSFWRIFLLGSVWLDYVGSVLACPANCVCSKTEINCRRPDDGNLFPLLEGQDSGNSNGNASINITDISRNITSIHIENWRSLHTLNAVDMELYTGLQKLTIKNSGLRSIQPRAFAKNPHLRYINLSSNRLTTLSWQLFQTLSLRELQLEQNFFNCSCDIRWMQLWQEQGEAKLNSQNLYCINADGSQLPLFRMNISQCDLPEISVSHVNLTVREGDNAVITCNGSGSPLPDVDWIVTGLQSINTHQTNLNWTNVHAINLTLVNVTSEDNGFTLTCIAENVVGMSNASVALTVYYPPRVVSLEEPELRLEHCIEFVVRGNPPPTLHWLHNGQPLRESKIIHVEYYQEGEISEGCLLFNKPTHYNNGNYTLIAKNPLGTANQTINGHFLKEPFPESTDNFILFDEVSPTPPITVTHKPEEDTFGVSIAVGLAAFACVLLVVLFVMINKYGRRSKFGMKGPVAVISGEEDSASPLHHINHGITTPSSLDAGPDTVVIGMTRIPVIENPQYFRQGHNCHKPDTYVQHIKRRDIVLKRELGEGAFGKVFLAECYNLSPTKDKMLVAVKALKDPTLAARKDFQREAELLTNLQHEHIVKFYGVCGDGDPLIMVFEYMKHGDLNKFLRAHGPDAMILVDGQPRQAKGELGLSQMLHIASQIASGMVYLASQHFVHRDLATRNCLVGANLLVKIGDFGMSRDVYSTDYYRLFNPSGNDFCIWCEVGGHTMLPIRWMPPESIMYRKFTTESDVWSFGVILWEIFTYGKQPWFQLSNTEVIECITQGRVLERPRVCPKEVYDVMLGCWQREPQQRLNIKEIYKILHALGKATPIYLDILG
Chain of UniProt Q8IWQ3 (whole entry, looked up): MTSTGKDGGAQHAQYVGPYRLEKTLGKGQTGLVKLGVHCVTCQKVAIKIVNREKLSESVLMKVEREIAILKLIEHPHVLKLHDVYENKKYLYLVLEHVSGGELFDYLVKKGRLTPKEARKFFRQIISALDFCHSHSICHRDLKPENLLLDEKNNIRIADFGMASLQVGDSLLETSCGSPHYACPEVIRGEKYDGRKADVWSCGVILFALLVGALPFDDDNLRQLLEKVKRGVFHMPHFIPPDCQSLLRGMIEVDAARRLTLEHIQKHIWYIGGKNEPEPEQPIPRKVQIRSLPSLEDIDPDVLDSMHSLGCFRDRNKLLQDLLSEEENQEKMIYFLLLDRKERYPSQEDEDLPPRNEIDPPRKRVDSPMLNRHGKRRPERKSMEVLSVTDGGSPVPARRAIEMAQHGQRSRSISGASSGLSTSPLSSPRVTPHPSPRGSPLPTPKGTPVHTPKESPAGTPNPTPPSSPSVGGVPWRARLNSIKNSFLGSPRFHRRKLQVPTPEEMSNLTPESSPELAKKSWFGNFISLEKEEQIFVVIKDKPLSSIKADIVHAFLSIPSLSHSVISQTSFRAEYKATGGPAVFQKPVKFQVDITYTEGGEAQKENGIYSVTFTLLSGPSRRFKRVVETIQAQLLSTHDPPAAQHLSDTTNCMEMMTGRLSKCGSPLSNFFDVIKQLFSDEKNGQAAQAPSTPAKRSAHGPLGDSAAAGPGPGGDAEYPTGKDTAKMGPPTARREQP
Chain of UniProt P09769 (whole entry, looked up): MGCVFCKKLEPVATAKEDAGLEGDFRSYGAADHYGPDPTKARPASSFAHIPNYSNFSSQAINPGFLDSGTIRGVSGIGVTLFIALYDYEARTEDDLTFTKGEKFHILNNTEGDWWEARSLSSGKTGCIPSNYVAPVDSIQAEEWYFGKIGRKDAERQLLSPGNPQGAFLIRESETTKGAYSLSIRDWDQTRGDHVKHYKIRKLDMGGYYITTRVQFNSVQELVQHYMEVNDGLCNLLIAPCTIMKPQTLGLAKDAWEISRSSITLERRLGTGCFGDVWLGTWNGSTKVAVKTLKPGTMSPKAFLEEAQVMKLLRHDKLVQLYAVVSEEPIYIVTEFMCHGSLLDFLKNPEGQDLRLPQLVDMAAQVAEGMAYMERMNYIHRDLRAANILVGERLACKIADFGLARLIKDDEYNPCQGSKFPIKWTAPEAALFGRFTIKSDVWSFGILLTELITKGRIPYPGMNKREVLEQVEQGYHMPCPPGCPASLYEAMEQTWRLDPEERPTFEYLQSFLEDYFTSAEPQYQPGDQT
Chain of UniProt Q6DT37 (whole entry, looked up): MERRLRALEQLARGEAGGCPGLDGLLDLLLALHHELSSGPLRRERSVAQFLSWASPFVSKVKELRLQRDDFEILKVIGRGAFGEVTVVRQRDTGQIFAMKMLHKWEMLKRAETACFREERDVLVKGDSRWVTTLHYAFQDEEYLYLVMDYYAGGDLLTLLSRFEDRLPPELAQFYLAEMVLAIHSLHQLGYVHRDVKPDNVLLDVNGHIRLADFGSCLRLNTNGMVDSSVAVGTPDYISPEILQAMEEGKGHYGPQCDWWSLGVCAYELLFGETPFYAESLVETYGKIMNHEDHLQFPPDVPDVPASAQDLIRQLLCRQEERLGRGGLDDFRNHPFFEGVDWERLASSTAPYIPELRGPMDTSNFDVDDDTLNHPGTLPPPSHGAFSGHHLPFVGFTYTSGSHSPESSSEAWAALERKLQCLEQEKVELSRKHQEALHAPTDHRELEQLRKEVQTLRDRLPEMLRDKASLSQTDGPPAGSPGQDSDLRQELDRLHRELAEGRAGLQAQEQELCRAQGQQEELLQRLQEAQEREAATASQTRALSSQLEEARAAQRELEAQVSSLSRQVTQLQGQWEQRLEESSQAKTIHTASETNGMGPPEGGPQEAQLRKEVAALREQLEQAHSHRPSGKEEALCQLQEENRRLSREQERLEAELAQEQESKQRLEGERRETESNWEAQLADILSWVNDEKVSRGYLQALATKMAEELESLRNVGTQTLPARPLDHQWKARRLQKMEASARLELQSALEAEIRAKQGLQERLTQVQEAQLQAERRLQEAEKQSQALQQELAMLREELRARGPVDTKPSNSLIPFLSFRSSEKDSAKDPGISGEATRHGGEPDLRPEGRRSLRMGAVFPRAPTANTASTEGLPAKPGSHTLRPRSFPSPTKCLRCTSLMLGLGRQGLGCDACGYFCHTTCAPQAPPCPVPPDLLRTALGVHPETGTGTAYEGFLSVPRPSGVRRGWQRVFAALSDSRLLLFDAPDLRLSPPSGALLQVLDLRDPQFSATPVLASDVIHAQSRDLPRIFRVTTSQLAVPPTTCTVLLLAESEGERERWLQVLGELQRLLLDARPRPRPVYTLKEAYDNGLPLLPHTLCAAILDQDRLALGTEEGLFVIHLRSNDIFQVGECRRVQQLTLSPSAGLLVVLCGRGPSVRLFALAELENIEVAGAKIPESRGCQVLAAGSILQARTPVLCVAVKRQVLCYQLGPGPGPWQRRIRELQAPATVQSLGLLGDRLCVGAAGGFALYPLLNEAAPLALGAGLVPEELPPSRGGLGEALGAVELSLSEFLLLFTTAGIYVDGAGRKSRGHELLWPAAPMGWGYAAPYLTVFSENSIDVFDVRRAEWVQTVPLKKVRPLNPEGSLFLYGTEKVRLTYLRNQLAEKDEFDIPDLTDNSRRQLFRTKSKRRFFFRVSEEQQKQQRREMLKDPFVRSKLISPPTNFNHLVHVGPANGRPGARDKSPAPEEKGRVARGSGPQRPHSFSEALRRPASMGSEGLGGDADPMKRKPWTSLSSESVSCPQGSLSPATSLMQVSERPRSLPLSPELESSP
Chain of UniProt Q8NI60 (whole entry, looked up): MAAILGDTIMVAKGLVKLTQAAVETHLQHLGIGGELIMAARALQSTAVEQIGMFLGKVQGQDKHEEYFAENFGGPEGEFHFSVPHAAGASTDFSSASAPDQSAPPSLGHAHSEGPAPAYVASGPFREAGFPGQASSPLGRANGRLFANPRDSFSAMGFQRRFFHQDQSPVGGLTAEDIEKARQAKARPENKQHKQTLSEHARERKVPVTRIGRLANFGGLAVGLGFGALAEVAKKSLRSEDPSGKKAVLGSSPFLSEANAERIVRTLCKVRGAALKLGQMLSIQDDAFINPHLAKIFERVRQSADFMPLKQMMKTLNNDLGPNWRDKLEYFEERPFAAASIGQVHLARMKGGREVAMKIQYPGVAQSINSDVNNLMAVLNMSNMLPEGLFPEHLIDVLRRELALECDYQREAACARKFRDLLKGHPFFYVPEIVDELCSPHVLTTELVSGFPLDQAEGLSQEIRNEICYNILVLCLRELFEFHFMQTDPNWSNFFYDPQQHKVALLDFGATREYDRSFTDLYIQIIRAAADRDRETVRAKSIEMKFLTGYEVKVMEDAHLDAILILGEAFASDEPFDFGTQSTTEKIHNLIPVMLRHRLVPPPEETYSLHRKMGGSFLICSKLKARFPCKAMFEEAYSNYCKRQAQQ

Set 1 — organism: Sarcocystis neurona; observed: parasite growth; tested at: 10 µM; time: 96 h; notes: secondary screen
| SMILES | inhibition |
| --- | --- |
| CN(C)CCCSc1ccccc1NC(=O)/C=C/c1ccccc1 | -36.4% |
| CC[N+](C)(C)c1cccc(O)c1 | -14.9% |
| CC(=O)OCC(=O)[C@@]1(O)CC[C@H]2[C@@H]3CCC4=CC(=O)C=C[C@]4(C)[C@H]3[C@@H](O)C[C@@]21C | 4.7% |
| O=C(O)c1cc(-c2ccc(F)cc2F)ccc1O | -21.4% |
| Nc1nc2c(ncn2CCC(CO)CO)c(=O)[nH]1 | -33.7% |
| Nc1nc2c(ncn2COCCO)c(=O)[nH]1 | -4.8% |
| CCOc1ccc2ccccc2c1C(=O)N[C@@H]1C(=O)N2[C@@H]1SC(C)(C)[C@@H]2C(=O)O | -22.6% |

Set 2 — observed: enzyme activity; action: inhibitor; tested at: 0.5 µM; reference: control
Target: Serine/threonine-protein kinase STK11 (STK11, Homo sapiens, UniProt Q15831)
Construct (Q15831 1-433): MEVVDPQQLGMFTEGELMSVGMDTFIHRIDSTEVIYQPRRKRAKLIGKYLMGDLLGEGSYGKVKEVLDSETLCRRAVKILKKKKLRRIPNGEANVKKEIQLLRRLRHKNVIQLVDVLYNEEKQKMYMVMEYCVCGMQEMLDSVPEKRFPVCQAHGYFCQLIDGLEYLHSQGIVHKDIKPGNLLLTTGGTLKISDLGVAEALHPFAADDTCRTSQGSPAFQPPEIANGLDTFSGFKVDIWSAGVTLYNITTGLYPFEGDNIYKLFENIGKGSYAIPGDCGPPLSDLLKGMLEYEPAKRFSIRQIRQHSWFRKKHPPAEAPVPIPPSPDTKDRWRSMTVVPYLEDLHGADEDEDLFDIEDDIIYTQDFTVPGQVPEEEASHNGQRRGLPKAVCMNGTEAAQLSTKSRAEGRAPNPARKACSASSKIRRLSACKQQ
| SMILES | remaining activity |
| --- | --- |
| Nc1nc(Nc2ccc(S(N)(=O)=O)cc2)nn1C(=S)Nc1c(F)cccc1F | 23.5% |
| CCCCc1c(-c2ccc(O)cc2)[nH]c2nccnc12 | 33.5% |
| O=C(O)/C=C/c1cc(Br)c(Br)c(Br)c1Br | 42.8% |
| O=Nc1c(-c2c(O)[nH]c3ccccc23)[nH]c2ccccc12 | 25.6% |
| NC(=O)c1ccc(-c2nc(-c3ccc4c(c3)OCCO4)c(-c3ccccn3)[nH]2)cc1 | 90.9% |
| C[C@@H](N)[C@H]1CC[C@H](C(=O)Nc2ccncc2)CC1 | 91.2% |
| Clc1ccc(Nc2nnc(Cc3ccncc3)c3ccccc23)cc1 | 97.3% |
| CNc1cc2c(Nc3cccc(Br)c3)ncnc2cn1 | 98.3% |
| CC(C)n1cnc2c(Nc3cccc(Cl)c3)nc(NCCO)nc21 | 76.1% |
| N#C/C(=C(/N)SC1C=CC=CC1)c1cccc(C(O)c2ccncc2)c1 (stereo not shown) | 101% |
| COc1cc2c(N3CCN(C(=O)Nc4ccc(OC(C)C)cc4)CC3)ncnc2cc1OCCCN1CCCCC1 | 104% |
| CC(C)N(CCC(=O)c1ccc2ccccc2c1)Cc1ccccc1 | 94.2% |
| O=C(c1ccccc1)c1ccc(N2CCOCC2)cc1O | 104% |
| NC(=O)c1cccc(-c2cc(Nc3ccc(OC(F)(F)F)cc3)ncn2)c1 | 97.2% |
| COc1cc2c(Nc3ccc(Br)cc3F)ncnc2cc1OCC1CCN(C)CC1 | 105% |
| O=C1c2ccccc2-c2nc3nnnn3nc21 | 99.1% |
| CCN(CC)CCCCN1c2ccccc2Oc2ccc(Cl)cc21 | 94.4% |
| FC(F)(F)c1ccc(/C=C/c2nc(COc3ccc(CCCCn4ccnn4)cc3)co2)cc1 | 104% |
| CC(C)(C)c1nc2c3cc[nH]c(=O)c3c3cc(F)ccc3c2[nH]1 | 58.4% |
| O=C1NC(=O)/C(=C/c2ccc3c(c2)OC(F)(F)O3)S1 | 96.9% |

Set 3 — tested at: 1 µM
SMILES: Cc1c(NC(=O)c2cc(C(N)=O)nc3cc(F)ccc23)c(C(F)(F)F)nn1Cc1ccc(C#N)cc1
| target | assay | remaining binding |
| --- | --- | --- |
| COQ8A (Homo sapiens, UniProt Q8NI60) | cell-free assay, competition with immobilised ligand | 82% |
| DYRK2 (Homo sapiens, UniProt Q92630) | cell-free assay, competition with immobilised ligand | 88% |
| CAMK1D (Homo sapiens, UniProt Q8IU85) | cell-free assay, competition with immobilised ligand | 100% |
| HIPK4 (Homo sapiens, UniProt Q8NE63) | cell-free assay, competition with immobilised ligand | 100% |
| CAMK1G (Homo sapiens, UniProt Q96NX5) | cell-free assay, competition with immobilised ligand | 75% |
| TRPM6 (Homo sapiens, UniProt Q9BX84) | cell-free assay, competition with immobilised ligand | 87% |
| GRK1 (Homo sapiens, UniProt Q15835) | cell-free assay, competition with immobilised ligand | 87% |
| CDC42BPG (Homo sapiens, UniProt Q6DT37) | competition binding | 91% |
| FGR (Homo sapiens, UniProt P09769) | cell-free assay, competition with immobilised ligand | 93% |
| MAP3K12 (Homo sapiens, UniProt Q12852) | cell-free assay, competition with immobilised ligand | 89% |
| PLK4 (Homo sapiens, UniProt O00444) | cell-free assay, competition with immobilised ligand | 100% |
| WNK1 (Homo sapiens, UniProt Q9H4A3) | cell-free assay, competition with immobilised ligand | 80% |
| IKBKB (Homo sapiens, UniProt O14920) | cell-free assay, competition with immobilised ligand | 92% |
| NTRK3 (Homo sapiens, UniProt Q16288) | cell-free assay, competition with immobilised ligand | 69% |
| STK32A (Homo sapiens, UniProt Q8WU08) | binding, competition with immobilised ligand | 89% |
| CDK18 (Homo sapiens, UniProt Q07002) | cell-free assay, competition with immobilised ligand | 100% |
| BRSK2 (Homo sapiens, UniProt Q8IWQ3) | cell-free assay, competition with immobilised ligand | 100% |
| PRKCI (Homo sapiens, UniProt P41743) | cell-free assay, competition with immobilised ligand | 84% |

Mixed results
| Structure (SMILES) | target | setting | quantity | value |
| --- | --- | --- | --- | --- |
| COc1ccc2[nH]c3c4[nH]c5ccc(OC)cc5c4c4c(c3c2c1)C(=O)NC4=O | Proto-oncogene tyrosine-protein kinase Src (SRC, Homo sapiens, UniProt P12931) | 1 µM | receptor occupancy | -49.8% |

Some of these lines once more (set 2):
| SMILES | remaining activity |
| --- | --- |
| Clc1ccc(Nc2nnc(Cc3ccncc3)c3ccccc23)cc1 | 97.3% |
| CNc1cc2c(Nc3cccc(Br)c3)ncnc2cn1 | 98.3% |
